Measured values from different studies.
Compare with care: the assays were run in different laboratories. Several values in a cell are separate wells, animals, samples, runs or records.
Target: Death-associated protein kinase 2 (DAPK2, Homo sapiens, UniProt Q9UIK4)

Cc1ccc(-c2c(/C=C(\C#N)C(=O)NC(C)C)n(CCCO)c3ncnc(N)c23)cc1  remaining binding (cell-free assay, competition with immobilised ligand; 1 µM): 100%
C=CC(=O)N1Cc2nc(-c3cc(-c4cc(Cl)cnc4Cl)c(F)cc3F)n(-c3ccncn3)c2C1  inhibition (cell-free assay, inhibitor; 1 µM): 4.4%
COc1c(Cl)cccc1Nc1c(-c2ccncc2C#C[C@@]2(C)CCCN2C(=O)/C=C/CN(C)C)[nH]c2c1C(=O)NCC2  remaining binding (binding, competition with immobilised ligand; 3 µM): 92%
C=CC(=O)N1CCCC(n2c(=O)c3ncccc3n(Cc3ccc(Oc4ccccc4)cc3)c2=O)C1 (stereo not drawn)  remaining binding (cell-free assay, competition with immobilised ligand; 1 µM): 98%
CNC1C[S+]2CC[S+]3CC[S+](C1)[Ru-4]321([N]=C=S)[n]2c3ccc(OC)cc3c3c4c(c5cc(F)c[n+]1c5c32)C(=O)NC4=O (stereo not drawn)  remaining binding (KinomeScan; 0.1 µM; reference: untreated): 5.8%
CN1CCN(Cc2ccc(-c3ccc(CO[C@H]4CCC[C@@H]4NC(=O)c4cc(-c5cnn(C)c5)cnc4N)cc3)cc2)CC1  inhibition (enzyme activity, inhibitor; 0.1 µM): 12%
CCN1CCN(Cc2ccc(C(=O)Nc3ccc(C)c(NCc4cnc5[nH]ccc5c4OC)c3)cc2C(F)(F)F)CC1  remaining binding (binding, competition with immobilised ligand; 1 µM): 69%
Nc1ncc(-c2cc(-c3cnn(CC(F)(F)F)c3)ncc2F)nc1C(=O)NC1CNCC(F)C1 (stereo not drawn)  remaining activity (enzyme activity; 1 µM; reference: DMSO control): 93.5%
COCC12C(=O)NC3C4(C(OC)CC1O)C1CC5(O)C(OC)C(O)C(OC(C)=O)(C1C5OC(=O)c1ccccc1)C3(O)C(OC)C24 (stereo not drawn)  remaining activity (kinase activity, inhibitor, ProQinase kinase profiling; 25 µM; reference: control): 96% and 99%
COc1c(OCCCN2CCOCC2)ccc2c1N=C(NC(=O)c1cnc(N)nc1)N1CCN=C21  remaining activity (kinase activity, inhibitor; 1 µM; reference: untreated control): 93%
NC(=O)[C@@H](O)C[C@H]1CCc2sc3ncnc(O[C@H]4CC[C@H](N5CCOCC5)CC4)c3c21  inhibition (enzyme activity, inhibitor; 10 µM): 1%
CNC(=O)C[C@H](Cc1ccc(C#N)cc1)NC(=O)c1cc(-c2ccc(CN[C@H](C)c3ccc(C)cc3)o2)ccc1Cl  activity vs control (enzyme activity, inhibitor; 1 µM): 117%

Repeated from above:
COc1c(OCCCN2CCOCC2)ccc2c1N=C(NC(=O)c1cnc(N)nc1)N1CCN=C21  remaining activity (kinase activity, inhibitor; 1 µM; reference: untreated control): 93%
